Results collected from several papers.
Technique: steady-state kinetics
B1: tsaM1 F253S/G291W/H204M/H255G/M230N/R216A/S234V/S257H/T232I/Y220I (Comamonas testosteroni, UniProt P94679); chain MFIRNCWYVAAWDTEIPAEGLFHRTLLNEPVLLYRDTQGRVVALENRCCHRSAPLHIGRQEGDCVRCLYHGLKFNPSGACVEIPGQEQIPPKTCIKSYPVVERNRLVWIWMGDPARANPDDIVDYFWHDSPEWRMKPGYIHYQANYKLIVDNLLDFTHLAWVHPTTLGTDSAASLKPVIERDTTGTGKLTITRWYLNDDMSNLMKGVAKFEGKADAWQIIQWSPPALLRNDIGVAPTGTGAPEGRRVPEAVQSRGTHIQTPETETTSHYWFCQARNFDLDDEALTEKIYQWVVVAFEEDRTMIEAHEKILSQVPDRPMVPIAADAGLNQGRWLLDRLLKAENGGTAP
B2: FPPS (Aedes aegypti, UniProt Q17F78); chain MLSTLIRAGSLQTMGRQFARSVETPVQMQHARFISKSSEVNSDYMTMRENQTQKVSRDYNSKLQVRLKKVSRTLSTLNNSIPEAASQTIVTKSDAREFMAVFPDLVRDLTEYCKKYDNTLAPKWFVKALQYNVPQGKKNRGLAAVLAYRMLSKSEDLTPENIRRAHYLGWVIEMFQAVFLICDDAMDGSQTRRGQPCWYKLEDVKLSGINDALMIDAAIFYVLKKQFGDEPYYSKLVETFNEIKFITTIGQSLDLRSARMDVTKYTMDLYKSIVCHKTAYYTFYLPVALAMHMTGFTDPEVFRQTKTILLEIGLFYQTQDDFLDCFGDPAVTGKIGTDIEEGKCTWLSVVAMQRASDEQKELMKQCYGSSDPEKVARVKKLYEELGLPTTYAIYEEESYNMIKTHIQQISRGLPHELFFKIMEKIYRRDC
B3: carbamoyl phosphate synthetase large subunit (Escherichia coli, UniProt P00968); chain PKRTDIKSILILGAGPIVIGQACEFDYSGAQACKALREEGYRVILVNSNPATIMTDPEMADATYIEPIHWEVVRKIIEKERPDAVLPTMGGQTALNCALELERQGVLEEFGVTMIGATADAIDKAEDRRRFDVAMKKIGLETARSGIAHTMEEALAVAADVGFPCIIRPSFTMGGSGGGIAYNREEFEEICARGLDLSPTKELLIDESLIGWKEYEMEVVRDKNDNCIIVCSIENFDAMGIHTGDSITVAPAQTLTDKEYQIMRNASMAVLREIGVETGGSNVQFAVNPKNGRLIVIEMNPRVSRSSALASKATGFPIAKVAAKLAVGYTLDELMNDITGGRTPASFEPSIDYVVTKIPRFNFEKFAGANDRLTTQMKSVGEVMAIGRTQQESLQKALRGLEVGATGFDPKVSLDDPEALTKIRRELKDAGADRIWYIADAFRAGLSVDGVFNLTNIDRWFLVQIEELVRLEEKVAEVGITGLNADFLRQLKRKGFADARLAKLAGVREAEIRKLRDQYDLHPVYKRVDTCAAEFATDTAYMYSTYEEECEANPSTDREKIMVLGGGPNRIGQGIEFDYCCVHASLALREDGYETIMVNCNPETVSTDYDTSDRLYFEPVTLEDVLEIVRIEKPKGVIVQYGGQTPLKLARALEAAGVPVIGTSPDAIDRAEDRERFQHAVERLKLKQPANATVTAIEMAVEKAKEIGYPLVVRPSYVLGGRAMEIVYDEADLRRYFQTAVSVSNDAPVLLDHFLDDAVEVDVDAICDGEMVLIGGIMEHIEQAGVHSGDSACSLPAYTLSQEIQDVMRQQVQKLAFELQVRGLMNVQFAVKNNEVYLIEVNPRAARTVPFVSKATGVPLAKVAARVMAGKSLAEQGVTKEVIPPYYSVKEVVLPFNKFPGVDPLLGPEMRSTGEVMGVGRTFAEAFAKAQLGSNSTMKKHGRALLSVREGDKERVVDLAAKLLKQGFELDATHGTAIVLGEAGINPRLVNKVHEGRPHIQDRIKNGEYTYIINTTSGRRAIEDSRVIRRSALQYKVHYDTTLNGGFATAMALNADATEKVISVQEMHAQIK
B4: MauG P127V (Paracoccus denitrificans, UniProt Q51658); chain EQARPADDALAALGAQLFVDPALSRNATQSCATCHDPARAFTDPREGKAGLAVSVGDDGQSHGDRNTPTLGYAALVPAFHRDANGKYKGGQFWDGRADDLKQQAGQVMLNPVEMAMPDRAAVAARLRDDPAYRTGFEALFGKGVLDDPERAFDAAAEALAAYQATGEFSPFDSKYDRVMRGEEKFTPLEEFGYTVFITWNCRLCHMQRKQGVAERETFTNFEYHNIGLPVNETAREASGLGADHVDHGLLARPGIEDPAQSGRFKVPSLRNVAVTGPYMHNGVFTDLRTAILFYNKYTSRRPEAKINPETGAPWGEPEVARNLSLAELQSGLMLDDGRVDALVAFLETLTDRRYEPLLEESRAAQKD
B5: enzyme (Thermobifida fusca, UniProt Q47RK4); chain MTDVYILDAVRTPFGRYGGALSGIRPDDLAAHVLRALAERSPGLDPAAVDDVFFGDANGAGEDNRNVARMAALLAGWPTSVPGVTLNRLCGSGMESVIAANRAIAVGDASLAVAGGVESMSRAPWVLPKPAQGFPTGHETLYSTTLGWRMVNPAMPEQWTVSLGESTEQVAATYGISRAEQDAFALRSHERAARAWAEGVFDAEITQIPGAELERDESIRETSAEKLAALKPAFRPDGTITAGNASPLNDGAAALLIGDAAAAERVGREPLARIVSRGVAAVDPDVFGIGPVQAAEIALRRAGIGWDDLSVVELNEAFAAQSLACLKLWPDLDPEIVNPNGGAIAIGHPLGASGARIVGTLAHELHRRGGGWGLAAICIGVGQGLAVVLHR
B6: MCAT R178Q (Homo sapiens, UniProt Q8IVS2); chain GQGSQVVGMGRGLLNYPRVRELYAAARRVLGYDLLELSLHGPQETLDRTVHCQPAIFVASLAAVEKLHHLQPSVIENCVAAAGFSVGEFAALVFAGAMEFAEGLYAVKIQAEAMQEASEAVPSGMLSVLGQPQSKFNFACLEAREHCKSLGIENPVCEVSNYLFPDCRVISGHQEALRFLQKNSSKFHFRRTRMLPVSGAFHTRLMEPAVEPLTQALKAVDIKKPLVSVYSNVHAHRYRHPGHIHKLLAQQLVSPVKWEQTMHAIYERKKGRGFPQTFEVGPGRQLGAILKSCNMQAWKSYSAVDVL
B7: enzyme (Sinorhizobium meliloti, UniProt Q92UV7); chain MTNAEVTIAVRHEPMRIAGRLVDTDDRVEVRYPWNDTVVGTVPAGRAEHAREAFAIAAAYQPKLTRYERQKILLATAEALAARKEEISDVITLELGISKADSLYEVGRAFDVFTLAGQMCIRDDGEIFSCDLTPHGKARKIFTMREPLTAISAITPFNHPLNMVAHKVAPAIATNNCVVVKPTELTPMTALLLADILYEAGLPPEMLSVVTGWPADIGMEMITNPHVDLVTFTGSVPVGKLIAANAHYKRQVLELGGNDPLIILNDLSDDDLARAADLAVAGATKNSGQRCTAVKRILCQESVADRFVPLVLERAKRLRFGDPMDRSTDLGTVIHEKAAALFEERVMRAAEEGADILYHPGRSGALLPPIVVDRVPHQSDLVLEETFGPIIPIVRVPDDDDATITLSNSTAFGLSSGVCTNDYRRMQKYIAGLKVGTVNIWEVPGYRIEMSPFGGIKDSGNGYKEGVIEAMKSFTNVKTFSLPWP
UniProt Q9LIN2, sequence (whole entry, looked up): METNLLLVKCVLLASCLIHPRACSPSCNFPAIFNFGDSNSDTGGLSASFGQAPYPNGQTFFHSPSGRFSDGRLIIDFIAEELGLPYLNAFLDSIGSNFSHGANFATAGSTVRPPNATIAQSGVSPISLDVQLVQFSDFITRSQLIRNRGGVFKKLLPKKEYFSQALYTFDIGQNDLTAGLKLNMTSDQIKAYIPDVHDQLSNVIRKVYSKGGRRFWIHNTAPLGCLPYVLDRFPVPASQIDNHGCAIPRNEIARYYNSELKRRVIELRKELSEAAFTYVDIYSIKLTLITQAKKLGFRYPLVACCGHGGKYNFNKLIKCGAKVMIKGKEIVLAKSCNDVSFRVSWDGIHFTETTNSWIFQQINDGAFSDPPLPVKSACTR
UniProt Q12043, sequence (whole entry, looked up): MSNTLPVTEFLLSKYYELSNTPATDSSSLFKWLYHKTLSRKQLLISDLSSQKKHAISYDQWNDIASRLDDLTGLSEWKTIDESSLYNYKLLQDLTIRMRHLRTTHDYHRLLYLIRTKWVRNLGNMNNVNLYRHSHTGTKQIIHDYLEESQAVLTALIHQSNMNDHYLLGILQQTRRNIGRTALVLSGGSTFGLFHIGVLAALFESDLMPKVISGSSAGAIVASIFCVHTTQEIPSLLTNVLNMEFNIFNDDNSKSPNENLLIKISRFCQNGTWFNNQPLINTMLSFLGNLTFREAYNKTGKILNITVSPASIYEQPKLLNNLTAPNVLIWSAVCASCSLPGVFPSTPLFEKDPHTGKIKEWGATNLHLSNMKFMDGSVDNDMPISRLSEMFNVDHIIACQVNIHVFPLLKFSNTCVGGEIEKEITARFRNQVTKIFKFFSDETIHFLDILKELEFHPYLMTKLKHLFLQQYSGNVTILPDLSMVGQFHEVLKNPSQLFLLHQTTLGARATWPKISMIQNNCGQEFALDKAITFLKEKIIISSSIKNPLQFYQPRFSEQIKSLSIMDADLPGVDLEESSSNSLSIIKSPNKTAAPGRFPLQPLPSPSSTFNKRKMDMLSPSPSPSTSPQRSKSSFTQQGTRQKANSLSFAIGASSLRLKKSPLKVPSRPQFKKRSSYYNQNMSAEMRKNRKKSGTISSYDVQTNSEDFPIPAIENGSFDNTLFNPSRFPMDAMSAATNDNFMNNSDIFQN
UniProt P19337, sequence (whole entry, looked up): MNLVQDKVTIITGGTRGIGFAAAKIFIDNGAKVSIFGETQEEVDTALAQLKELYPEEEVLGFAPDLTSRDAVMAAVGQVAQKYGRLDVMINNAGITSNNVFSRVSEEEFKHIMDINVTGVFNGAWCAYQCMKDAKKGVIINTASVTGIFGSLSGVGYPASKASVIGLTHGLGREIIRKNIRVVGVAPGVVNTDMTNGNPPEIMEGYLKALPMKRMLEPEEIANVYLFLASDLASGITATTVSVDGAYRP
UniProt Q51422, sequence (whole entry, looked up): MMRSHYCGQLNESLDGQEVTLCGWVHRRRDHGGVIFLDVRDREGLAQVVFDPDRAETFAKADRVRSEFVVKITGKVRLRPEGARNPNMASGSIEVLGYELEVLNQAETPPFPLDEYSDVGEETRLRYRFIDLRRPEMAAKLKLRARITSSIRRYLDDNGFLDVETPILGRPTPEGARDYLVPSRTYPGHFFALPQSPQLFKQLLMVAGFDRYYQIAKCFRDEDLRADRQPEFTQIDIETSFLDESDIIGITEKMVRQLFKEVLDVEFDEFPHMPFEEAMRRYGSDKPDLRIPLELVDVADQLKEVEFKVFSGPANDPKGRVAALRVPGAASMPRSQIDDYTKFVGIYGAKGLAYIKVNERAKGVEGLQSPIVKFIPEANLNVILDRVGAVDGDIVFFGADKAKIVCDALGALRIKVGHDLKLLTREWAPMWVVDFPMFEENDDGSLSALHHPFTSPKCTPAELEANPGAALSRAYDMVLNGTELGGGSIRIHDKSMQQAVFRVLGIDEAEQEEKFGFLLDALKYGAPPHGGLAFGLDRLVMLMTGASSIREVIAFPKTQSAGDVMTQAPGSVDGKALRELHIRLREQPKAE

`Aspartyl-tRNA synthetase (Pseudomonas aeruginosa, UniProt Q51422)` gave a Km of 170 µM (N[C@@H](CC(=O)O)C(=O)O; added: Mg2+).
With `B1` the Km was 42 µM (COc1c(Cl)ccc(Cl)c1C(=O)O; apparent, added: NADH 1 mM).
With `B2 (FPPS)` the Km was 17.3 µM (CC(C)=CCC/C(C)=C/COP(=O)(O)OP(=O)(O)O; pH 7.5, 37 °C, added: IPP 100 µM, Mg2+ 5 mM).
`At3g26430 (Arabidopsis thaliana, UniProt Q9LIN2)` has a Km of 4600 µM (CC(=O)Oc1ccc([N+](=O)[O-])cc1; E. coli soluble lysate; pH 7.5, 30 °C, not purified).
`B3` has a Km of 240 µM (Nc1ncnc2c1ncn2[C@@H]1O[C@H](COP(=O)(O)OP(=O)(O)OP(=O)(O)O)[C@@H](O)[C@H]1O; pH 7.6, KCl 100 mM, added: glutamine 10 mM, ornithine 10 mM).
For `protein (Anopheles gambiae, UniProt Q7PXJ0)`, the Km was 49.3 µM (Nc1ncnc2c1ncn2[C@@H]1O[C@H](COP(=O)(O)OS(=O)(=O)O)[C@@H](OP(=O)(O)O)[C@H]1O; pH 6.5, 37 °C, added: sulfate donor).
`BaiA2 (Clostridium scindens, UniProt P19337)` has a Km of 32 µM (C[C@H](CCC(=O)SCCNC(=O)CCNC(=O)[C@H](O)C(C)(C)COP(=O)(O)OP(=O)(O)OC[C@H]1O[C@@H](n2cnc3c(N)ncnc32)[C@H](O)[C@@H]1OP(=O)(O)O)[C@H]1CC[C@H]2[C@@H]3[C@H](O)C[C@@H]4C[C@H](O)CC[C@]4(C)[C@H]3C[C@H](O)[C@]12C; pH 8.7, 37 °C, added: NAD+).
`B4 (MauG P127V)` has a Km of 2.2 µM (O=C1O[C@H]([C@@H](O)CO)C(O)=C1O; pH 7.5, 25 °C, added: H2O2 100 µM).
`TGL5 (Saccharomyces cerevisiae, UniProt Q12043)` gave a Km of 29.3 µM (CCCCCCCC/C=C\CCCCCCCC(=O)SCCNC(=O)CCNC(=O)[C@H](O)C(C)(C)COP(=O)(O)OP(=O)(O)OC[C@H]1O[C@@H](n2cnc3c(N)ncnc32)[C@H](O)[C@@H]1OP(=O)(O)O; pH 7.5, 30 °C, added: LPA).
`B5 (enzyme)` gave a Km of 3320 µM (CC(C)(COP(=O)(O)OP(=O)(O)OC[C@H]1O[C@@H](n2cnc3c(N)ncnc32)[C@H](O)[C@@H]1OP(=O)(O)O)[C@@H](O)C(=O)NCCC(=O)NCCSC(=O)CC(=O)O; pH 7.4, 37 °C).
The Km of `B6 (MCAT R178Q)` is reported as 38.6 µM (CC(C)(COP(=O)(O)OP(=O)(O)OC[C@H]1O[C@@H](n2cnc3c(N)ncnc32)[C@H](O)[C@@H]1OP(=O)(O)O)[C@@H](O)C(=O)NCCC(=O)NCCSC(=O)CC(=O)O; pH 6.8, 20 °C, labelled substrate, added: holo-ACP 20 µM).
The Km of `B7 (enzyme)` is reported as 3.2 µM (O=CCP(=O)(O)O; pH 7.5, 30 °C).

Excerpt of the above:
`At3g26430 (Arabidopsis thaliana, UniProt Q9LIN2)` has a Km of 4600 µM (CC(=O)Oc1ccc([N+](=O)[O-])cc1; E. coli soluble lysate; pH 7.5, 30 °C, not purified).
